Measured values collected from several papers.
Numbered parts are unrelated; each lists some results of a single study. Values joined by “and” are separate records of one study, mostly repeats; a detail may differ.
UniProt Q06187, sequence (whole entry, looked up): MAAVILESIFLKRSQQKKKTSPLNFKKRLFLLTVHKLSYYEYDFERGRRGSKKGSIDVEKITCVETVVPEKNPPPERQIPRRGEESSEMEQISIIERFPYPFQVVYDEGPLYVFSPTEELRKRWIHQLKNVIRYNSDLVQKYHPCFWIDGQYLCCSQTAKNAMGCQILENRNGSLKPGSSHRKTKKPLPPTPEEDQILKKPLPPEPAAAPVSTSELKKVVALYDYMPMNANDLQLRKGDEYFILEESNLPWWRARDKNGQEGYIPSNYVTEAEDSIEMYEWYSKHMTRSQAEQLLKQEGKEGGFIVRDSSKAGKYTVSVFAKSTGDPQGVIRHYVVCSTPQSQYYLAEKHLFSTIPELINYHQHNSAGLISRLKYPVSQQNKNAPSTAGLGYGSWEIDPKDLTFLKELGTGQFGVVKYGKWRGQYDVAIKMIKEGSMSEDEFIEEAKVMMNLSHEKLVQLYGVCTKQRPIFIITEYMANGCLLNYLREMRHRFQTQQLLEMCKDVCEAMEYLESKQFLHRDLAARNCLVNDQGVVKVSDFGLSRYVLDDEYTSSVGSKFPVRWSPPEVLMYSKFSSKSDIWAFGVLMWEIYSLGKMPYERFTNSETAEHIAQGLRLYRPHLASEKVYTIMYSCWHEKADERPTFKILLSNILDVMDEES
UniProt O96013, sequence (whole entry, looked up): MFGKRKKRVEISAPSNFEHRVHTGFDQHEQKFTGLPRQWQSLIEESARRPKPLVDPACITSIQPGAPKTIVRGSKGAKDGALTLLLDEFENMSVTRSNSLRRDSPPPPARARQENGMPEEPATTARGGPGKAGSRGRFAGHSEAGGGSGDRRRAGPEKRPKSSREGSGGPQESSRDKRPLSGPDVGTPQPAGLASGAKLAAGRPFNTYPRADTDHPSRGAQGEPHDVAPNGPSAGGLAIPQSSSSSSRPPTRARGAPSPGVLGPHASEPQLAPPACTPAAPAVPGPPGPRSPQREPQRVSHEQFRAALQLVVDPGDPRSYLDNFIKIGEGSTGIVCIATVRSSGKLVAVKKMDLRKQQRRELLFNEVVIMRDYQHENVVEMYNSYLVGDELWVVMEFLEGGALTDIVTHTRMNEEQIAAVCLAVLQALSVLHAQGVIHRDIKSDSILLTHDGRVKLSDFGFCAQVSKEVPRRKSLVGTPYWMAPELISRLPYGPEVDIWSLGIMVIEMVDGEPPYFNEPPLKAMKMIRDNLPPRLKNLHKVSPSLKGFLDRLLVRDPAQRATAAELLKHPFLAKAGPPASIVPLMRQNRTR
UniProt Q96D53, sequence (whole entry, looked up): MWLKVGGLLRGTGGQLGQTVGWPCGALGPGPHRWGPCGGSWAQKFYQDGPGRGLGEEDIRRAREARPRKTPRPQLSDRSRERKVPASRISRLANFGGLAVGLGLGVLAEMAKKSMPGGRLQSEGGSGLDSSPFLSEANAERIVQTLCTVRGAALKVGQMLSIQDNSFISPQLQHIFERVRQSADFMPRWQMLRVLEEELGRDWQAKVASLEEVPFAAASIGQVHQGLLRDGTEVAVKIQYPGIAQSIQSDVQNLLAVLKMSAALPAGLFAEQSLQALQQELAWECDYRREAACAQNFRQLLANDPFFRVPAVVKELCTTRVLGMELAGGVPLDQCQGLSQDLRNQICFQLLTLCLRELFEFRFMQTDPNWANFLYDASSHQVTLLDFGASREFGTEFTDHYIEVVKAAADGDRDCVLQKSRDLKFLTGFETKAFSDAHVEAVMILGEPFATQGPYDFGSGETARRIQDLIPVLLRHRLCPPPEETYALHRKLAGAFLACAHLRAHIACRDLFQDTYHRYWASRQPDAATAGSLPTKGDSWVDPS
UniProt O15264, sequence (whole entry, looked up): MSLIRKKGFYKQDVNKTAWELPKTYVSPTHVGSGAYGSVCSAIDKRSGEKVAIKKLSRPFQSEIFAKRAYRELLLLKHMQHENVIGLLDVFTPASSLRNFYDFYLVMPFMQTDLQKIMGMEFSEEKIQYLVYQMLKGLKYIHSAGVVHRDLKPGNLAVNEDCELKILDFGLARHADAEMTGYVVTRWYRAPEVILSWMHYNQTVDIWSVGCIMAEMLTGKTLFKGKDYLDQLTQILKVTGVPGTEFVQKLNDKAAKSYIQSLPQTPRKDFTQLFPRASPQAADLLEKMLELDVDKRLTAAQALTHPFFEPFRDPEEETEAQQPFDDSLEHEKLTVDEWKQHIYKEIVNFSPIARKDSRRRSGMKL
UniProt P07949, sequence (whole entry, unmodified, looked up): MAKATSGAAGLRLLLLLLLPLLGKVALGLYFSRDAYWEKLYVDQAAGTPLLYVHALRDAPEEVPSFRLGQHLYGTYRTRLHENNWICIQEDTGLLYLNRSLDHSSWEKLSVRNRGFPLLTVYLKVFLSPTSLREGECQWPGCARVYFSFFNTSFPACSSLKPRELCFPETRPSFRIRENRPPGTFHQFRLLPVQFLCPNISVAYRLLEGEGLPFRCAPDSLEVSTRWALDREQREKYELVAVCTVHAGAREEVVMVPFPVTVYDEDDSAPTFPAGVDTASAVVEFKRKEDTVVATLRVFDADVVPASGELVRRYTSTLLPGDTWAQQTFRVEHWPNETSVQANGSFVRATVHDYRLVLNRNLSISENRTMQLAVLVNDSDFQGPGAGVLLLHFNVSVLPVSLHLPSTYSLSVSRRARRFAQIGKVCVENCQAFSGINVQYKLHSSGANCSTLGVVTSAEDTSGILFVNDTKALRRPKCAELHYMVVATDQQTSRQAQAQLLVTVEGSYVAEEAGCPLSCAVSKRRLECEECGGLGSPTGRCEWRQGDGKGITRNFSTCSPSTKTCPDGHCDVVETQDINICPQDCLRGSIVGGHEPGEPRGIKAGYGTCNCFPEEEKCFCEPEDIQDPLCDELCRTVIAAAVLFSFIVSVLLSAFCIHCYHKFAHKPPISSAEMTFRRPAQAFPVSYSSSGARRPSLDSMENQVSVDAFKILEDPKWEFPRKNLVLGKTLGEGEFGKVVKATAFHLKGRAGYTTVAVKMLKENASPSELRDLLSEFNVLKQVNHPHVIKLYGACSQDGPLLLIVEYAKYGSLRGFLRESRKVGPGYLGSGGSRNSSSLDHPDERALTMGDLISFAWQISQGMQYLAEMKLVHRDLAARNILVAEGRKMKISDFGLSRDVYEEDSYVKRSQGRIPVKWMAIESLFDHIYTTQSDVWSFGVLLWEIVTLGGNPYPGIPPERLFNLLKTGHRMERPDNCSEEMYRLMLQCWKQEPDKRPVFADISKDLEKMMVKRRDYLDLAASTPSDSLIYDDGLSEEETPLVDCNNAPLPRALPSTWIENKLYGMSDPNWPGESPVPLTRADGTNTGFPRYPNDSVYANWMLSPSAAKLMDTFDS
UniProt Q9UF33, sequence (whole entry, looked up): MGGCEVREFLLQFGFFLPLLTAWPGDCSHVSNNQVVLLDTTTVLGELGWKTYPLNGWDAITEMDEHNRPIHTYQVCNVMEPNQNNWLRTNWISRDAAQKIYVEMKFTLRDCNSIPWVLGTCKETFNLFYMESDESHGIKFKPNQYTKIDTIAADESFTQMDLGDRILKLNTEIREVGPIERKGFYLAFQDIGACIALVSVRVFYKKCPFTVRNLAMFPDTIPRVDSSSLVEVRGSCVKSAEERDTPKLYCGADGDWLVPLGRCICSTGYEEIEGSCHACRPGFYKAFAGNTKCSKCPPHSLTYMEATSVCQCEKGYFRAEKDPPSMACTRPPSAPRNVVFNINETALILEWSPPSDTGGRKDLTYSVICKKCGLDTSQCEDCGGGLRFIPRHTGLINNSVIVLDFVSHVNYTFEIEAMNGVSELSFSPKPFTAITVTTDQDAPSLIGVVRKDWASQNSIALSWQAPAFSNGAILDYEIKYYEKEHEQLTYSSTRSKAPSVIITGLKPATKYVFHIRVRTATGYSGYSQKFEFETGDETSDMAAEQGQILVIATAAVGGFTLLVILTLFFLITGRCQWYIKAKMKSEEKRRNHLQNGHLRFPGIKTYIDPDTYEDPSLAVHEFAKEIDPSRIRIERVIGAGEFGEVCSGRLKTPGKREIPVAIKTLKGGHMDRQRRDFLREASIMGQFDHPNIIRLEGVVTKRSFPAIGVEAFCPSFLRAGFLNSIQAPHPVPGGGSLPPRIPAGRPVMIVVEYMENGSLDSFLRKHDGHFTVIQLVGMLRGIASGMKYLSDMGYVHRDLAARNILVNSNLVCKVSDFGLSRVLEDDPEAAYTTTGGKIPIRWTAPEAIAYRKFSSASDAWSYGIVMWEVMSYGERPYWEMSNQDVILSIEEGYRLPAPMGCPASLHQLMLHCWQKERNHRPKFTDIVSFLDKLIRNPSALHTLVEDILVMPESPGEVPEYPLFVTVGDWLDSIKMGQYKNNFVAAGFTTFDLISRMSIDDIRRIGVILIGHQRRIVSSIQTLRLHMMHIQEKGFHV
UniProt P23443, sequence (whole entry, looked up): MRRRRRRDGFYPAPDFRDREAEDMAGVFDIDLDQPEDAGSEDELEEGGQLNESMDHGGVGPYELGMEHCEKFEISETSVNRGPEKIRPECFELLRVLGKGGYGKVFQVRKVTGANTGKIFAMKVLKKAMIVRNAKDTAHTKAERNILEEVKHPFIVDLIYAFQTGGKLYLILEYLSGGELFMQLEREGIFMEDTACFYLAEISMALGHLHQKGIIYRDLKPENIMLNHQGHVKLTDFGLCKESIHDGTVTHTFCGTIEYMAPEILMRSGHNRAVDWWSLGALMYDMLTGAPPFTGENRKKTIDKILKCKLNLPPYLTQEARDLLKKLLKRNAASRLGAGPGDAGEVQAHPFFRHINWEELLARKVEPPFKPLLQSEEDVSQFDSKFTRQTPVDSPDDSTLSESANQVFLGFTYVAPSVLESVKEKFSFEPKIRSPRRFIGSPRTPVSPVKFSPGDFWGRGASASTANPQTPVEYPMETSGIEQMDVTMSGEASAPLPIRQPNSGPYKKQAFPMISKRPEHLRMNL

Block 1
Compound: COc1ccc2c(O[C@@H]3C[C@H]4C(=O)N[C@]5(C(=O)O)CC5/C=C\CCCCC[C@H](NC(=O)OC5CCCC5)C(=O)N4C3)cc(-c3csc(NC(=O)C(C)C)n3)nc2c1C (stereo partly drawn)
Effect on: cell-free assay
Technique: competition with immobilised ligand
Tested at: 1 µM
It gave 74% for remaining binding (Cyclin-dependent kinase 4, with cyclin D1 (CDK4, Homo sapiens, UniProt P11802)).
The remaining binding was 100% (MTOR (Homo sapiens, UniProt P42345)).
For CAMKK1 (Homo sapiens, UniProt Q8N5S9): remaining binding read 100%.
NIM1K (Homo sapiens, UniProt Q8IY84) — remaining binding: 83%.
The remaining binding was 100% (EPHB4 (Homo sapiens, UniProt P54760)).
For STK26 (Homo sapiens, UniProt Q9P289): remaining binding read 95%.
It gave 100% for remaining binding (NEK9 (Homo sapiens, UniProt Q8TD19)).
For COQ8B (Homo sapiens, UniProt Q96D53): remaining binding read 100%.
The remaining binding was 93% (RPS6KB1 (Homo sapiens, UniProt P23443)).
The remaining binding was 99% (PAK4 (Homo sapiens, UniProt O96013)).
MINK1 (Homo sapiens, UniProt Q8N4C8) — remaining binding: 62%.
STK33 (Homo sapiens, UniProt Q9BYT3) — remaining binding: 54%.
IRAK4 (Homo sapiens, UniProt Q9NWZ3) — remaining binding: 71%.
It gave 100% for remaining binding (EPHA6 (Homo sapiens, UniProt Q9UF33)).
It gave 95% for remaining binding (RET (Homo sapiens, UniProt P07949, V804L)).

Block 2
Species: mouse
Medium: microsomes or S9
Tested at: 2 µM
Time: 0.5 h
`CNC(=O)CN(c1ccc(C(C)C)cc1)S(C)(=O)=O` gave a remaining compound of 74.1%.
With `CCc1nnc(NCc2ccccc2F)c2cc3sc(C)cc3n12` the remaining compound was 2.36%.
The remaining compound of `CN(CCOc1ccc(C2=NN(c3ccccc3)C(=O)C2)cc1)c1nc2ccccc2o1` is reported as 11.5%.
With `CC(C)(C)C(=O)N1CCC(C(=O)OCc2ccc(C(N)=O)cc2)CC1` the remaining compound was 0.0507%.
The remaining compound of `COCCc1noc(C(C)n2ccnc2-c2cc(F)cc(F)c2)n1` (stereo not drawn) is reported as 0.755%.
`CNC(=O)CCC(=O)C1=C(NC)CC(C)(C)CC1=O` has a remaining compound of 99.5%.
`CN(C)C(=O)NC1CCC(Nc2ncnc3[nH]ccc(=O)c23)CC1` (stereo not drawn) gave a remaining compound of 98.9%.

Block 3
SMILES: CN(C(=O)c1ccn2ncc(-c3ccc(C(N)=O)cc3)c2c1)c1ccc(C#N)cn1
Organism: Cryptosporidium parvum
Technique: time-kill
Cell line: HCT-8
Strain: nanoluciferase-expressing
Reading: higher = more parasites
For 2.222 µM, 72 h: parasite luminescence read 20400 RLU and 20000 RLU.
The parasite luminescence was 92800 RLU and 108000 RLU (0.02743 µM, 8 h).
It gave 98000 RLU and 99200 RLU for parasite luminescence (0.2469 µM, 8 h).
2.222 µM, 48 h — parasite luminescence: 33300 RLU and 22000 RLU.
0.02743 µM, 4 h — parasite luminescence: 71400 RLU and 68100 RLU.
6.667 µM, 24 h — parasite luminescence: 71200 RLU and 109000 RLU.
The parasite luminescence was 92300 RLU and 90400 RLU (20 µM, 4 h).
It gave 20400 RLU and 21500 RLU for parasite luminescence (20 µM, 72 h).

Block 4
SMILES: O=C1NC(=O)/C(=C/c2ccc3c(c2)OC(F)(F)O3)S1
Effect on: enzyme activity
Action: inhibitor
Tested at: 0.5 µM
Relative to: control
It gave 92.3% for remaining activity (MAP2K6 (Homo sapiens, UniProt P52564)).
The remaining activity was 113% (WNK2 (Homo sapiens, UniProt Q9Y3S1)).
It gave 95.6% for remaining activity (PRKG1 (Homo sapiens, UniProt Q13976)).
It gave 94.3% for remaining activity (BTK (Homo sapiens, UniProt Q06187)).
MAPK12 (Homo sapiens, UniProt P53778) — remaining activity: 92.8%.
It gave 101% for remaining activity (MAPK13 (Homo sapiens, UniProt O15264)).
CSNK1A1 (Homo sapiens, UniProt P48729) — remaining activity: 88.4%.
The remaining activity was 99.7% (PLK2 (Homo sapiens, UniProt Q9NYY3)).
MAP4K2 (Homo sapiens, UniProt Q12851) — remaining activity: 90.7%.
